Published values pooled from the literature.
± gives the spread as reported.
Chain of UniProt P32745 (whole entry, looked up): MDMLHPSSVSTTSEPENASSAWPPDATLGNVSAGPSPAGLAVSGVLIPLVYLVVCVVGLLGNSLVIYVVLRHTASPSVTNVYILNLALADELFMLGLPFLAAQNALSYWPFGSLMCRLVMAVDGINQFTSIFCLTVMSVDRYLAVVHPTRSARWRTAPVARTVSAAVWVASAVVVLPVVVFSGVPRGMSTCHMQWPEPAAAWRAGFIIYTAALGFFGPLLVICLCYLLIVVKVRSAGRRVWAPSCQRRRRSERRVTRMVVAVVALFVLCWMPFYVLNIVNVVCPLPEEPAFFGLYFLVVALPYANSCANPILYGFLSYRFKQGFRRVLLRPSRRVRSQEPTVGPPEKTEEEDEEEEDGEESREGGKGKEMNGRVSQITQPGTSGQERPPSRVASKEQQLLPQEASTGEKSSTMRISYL
Chain of UniProt Q9UPE1 (whole entry, looked up): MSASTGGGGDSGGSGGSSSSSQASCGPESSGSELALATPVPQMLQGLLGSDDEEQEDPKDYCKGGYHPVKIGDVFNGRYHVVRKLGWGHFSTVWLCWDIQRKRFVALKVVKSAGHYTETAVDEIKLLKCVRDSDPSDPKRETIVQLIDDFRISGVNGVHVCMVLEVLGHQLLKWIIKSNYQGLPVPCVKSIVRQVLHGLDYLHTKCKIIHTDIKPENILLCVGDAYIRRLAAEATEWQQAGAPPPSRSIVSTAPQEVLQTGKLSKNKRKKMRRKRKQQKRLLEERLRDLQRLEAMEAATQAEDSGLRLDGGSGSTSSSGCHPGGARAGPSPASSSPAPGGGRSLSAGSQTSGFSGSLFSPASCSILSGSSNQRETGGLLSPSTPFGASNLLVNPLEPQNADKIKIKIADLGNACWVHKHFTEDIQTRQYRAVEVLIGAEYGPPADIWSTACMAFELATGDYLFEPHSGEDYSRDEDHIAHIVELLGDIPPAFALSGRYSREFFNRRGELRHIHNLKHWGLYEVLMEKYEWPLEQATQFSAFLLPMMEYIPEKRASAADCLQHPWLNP
Chain of UniProt Q9Y3R4 (whole entry, looked up): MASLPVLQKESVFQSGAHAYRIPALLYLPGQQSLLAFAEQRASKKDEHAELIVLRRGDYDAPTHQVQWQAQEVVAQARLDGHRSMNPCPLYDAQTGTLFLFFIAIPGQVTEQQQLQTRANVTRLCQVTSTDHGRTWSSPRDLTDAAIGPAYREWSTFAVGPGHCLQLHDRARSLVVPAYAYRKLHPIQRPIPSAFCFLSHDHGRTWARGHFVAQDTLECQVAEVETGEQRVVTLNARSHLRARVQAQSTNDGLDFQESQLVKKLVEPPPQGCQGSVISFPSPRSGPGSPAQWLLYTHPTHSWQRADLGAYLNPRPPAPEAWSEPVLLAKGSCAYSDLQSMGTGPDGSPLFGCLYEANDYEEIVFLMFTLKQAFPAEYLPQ
Chain of UniProt Q62351 (whole entry, looked up): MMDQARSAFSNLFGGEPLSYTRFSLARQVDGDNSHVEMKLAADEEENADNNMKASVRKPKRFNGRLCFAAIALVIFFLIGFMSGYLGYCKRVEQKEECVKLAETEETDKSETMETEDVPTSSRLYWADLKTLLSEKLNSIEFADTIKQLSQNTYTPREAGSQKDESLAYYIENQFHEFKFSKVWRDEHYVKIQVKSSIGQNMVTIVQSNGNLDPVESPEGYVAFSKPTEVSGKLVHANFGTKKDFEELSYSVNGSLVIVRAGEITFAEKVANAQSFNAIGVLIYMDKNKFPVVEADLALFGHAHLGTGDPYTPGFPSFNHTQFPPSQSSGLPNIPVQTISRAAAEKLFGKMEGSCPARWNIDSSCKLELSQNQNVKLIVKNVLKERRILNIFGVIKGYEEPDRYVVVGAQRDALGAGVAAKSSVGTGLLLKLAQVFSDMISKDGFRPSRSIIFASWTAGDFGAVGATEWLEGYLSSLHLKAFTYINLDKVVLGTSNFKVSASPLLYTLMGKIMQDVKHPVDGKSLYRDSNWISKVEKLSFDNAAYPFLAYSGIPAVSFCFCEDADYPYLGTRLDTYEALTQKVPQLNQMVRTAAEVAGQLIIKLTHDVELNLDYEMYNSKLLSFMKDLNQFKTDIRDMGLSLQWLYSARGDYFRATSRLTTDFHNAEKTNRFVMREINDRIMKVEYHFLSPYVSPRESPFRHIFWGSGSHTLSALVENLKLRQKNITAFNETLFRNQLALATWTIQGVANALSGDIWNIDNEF
Chain of UniProt Q13224 (whole entry, unmodified, looked up): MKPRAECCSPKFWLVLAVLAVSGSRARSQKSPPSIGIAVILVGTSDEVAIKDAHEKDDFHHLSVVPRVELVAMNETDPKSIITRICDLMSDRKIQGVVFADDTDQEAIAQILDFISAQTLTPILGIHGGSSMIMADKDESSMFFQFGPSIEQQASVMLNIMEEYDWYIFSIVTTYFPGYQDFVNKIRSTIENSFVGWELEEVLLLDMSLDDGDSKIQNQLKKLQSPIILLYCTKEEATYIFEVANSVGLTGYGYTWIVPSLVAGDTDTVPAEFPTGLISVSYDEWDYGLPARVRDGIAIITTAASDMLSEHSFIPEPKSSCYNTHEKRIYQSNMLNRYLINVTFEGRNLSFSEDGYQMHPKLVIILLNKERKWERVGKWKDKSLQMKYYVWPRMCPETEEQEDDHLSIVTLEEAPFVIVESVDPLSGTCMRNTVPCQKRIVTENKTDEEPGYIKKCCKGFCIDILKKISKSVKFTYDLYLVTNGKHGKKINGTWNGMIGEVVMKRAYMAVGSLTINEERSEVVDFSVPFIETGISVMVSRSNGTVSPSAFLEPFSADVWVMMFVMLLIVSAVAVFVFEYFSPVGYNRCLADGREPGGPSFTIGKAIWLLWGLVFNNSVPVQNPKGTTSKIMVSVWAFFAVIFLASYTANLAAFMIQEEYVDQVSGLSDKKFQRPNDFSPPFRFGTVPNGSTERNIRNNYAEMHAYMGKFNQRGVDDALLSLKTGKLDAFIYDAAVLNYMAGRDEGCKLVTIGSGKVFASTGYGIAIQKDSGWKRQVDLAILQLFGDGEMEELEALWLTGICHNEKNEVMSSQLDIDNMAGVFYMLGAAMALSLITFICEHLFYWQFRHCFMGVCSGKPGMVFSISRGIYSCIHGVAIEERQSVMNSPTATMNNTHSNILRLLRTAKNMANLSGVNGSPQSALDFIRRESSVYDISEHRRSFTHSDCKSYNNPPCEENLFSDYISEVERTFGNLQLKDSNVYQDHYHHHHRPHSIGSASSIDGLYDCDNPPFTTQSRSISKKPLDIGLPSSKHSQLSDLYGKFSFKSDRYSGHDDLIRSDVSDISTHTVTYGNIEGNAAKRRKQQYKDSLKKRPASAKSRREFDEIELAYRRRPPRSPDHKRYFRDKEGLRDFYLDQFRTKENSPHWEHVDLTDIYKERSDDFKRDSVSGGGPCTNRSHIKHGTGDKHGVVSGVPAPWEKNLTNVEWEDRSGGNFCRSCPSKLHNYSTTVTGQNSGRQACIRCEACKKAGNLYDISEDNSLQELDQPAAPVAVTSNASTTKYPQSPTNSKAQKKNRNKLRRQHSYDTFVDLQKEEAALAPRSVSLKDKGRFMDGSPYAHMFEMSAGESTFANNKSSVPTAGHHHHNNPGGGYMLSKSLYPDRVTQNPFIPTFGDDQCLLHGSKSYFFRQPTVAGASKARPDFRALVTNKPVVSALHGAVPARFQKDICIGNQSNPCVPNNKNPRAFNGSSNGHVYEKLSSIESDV
Chain of UniProt Q13263 (whole entry, looked up): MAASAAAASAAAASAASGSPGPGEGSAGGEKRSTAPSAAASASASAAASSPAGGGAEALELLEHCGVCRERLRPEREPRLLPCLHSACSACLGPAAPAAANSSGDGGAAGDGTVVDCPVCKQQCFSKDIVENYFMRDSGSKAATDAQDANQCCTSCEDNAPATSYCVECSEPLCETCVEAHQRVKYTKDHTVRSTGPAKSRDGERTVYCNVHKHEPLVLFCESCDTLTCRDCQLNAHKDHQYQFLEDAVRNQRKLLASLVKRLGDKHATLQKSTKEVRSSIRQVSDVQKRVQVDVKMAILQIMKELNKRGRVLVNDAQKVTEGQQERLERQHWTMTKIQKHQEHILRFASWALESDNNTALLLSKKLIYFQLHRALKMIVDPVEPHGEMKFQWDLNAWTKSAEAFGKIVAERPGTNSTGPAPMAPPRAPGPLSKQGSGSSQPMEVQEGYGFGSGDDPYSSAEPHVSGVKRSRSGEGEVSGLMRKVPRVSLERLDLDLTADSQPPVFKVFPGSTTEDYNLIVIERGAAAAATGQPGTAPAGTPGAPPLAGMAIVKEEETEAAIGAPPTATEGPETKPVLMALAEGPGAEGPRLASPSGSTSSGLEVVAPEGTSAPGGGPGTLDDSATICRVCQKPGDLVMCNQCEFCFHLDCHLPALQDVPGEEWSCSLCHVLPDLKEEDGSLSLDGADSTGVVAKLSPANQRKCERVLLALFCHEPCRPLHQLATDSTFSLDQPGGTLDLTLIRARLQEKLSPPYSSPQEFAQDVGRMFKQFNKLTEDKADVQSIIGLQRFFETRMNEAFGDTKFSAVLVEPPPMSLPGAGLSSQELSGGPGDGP

| SMILES | target or system | test | system | conditions | scale | quantity | result |
| --- | --- | --- | --- | --- | --- | --- | --- |
| C[C@H](CCC(C)(C)O)[C@H]1CC[C@H]2[C@@H]3CC=C4C[C@@](C)(O)CC[C@]4(C)[C@H]3CC[C@]12C | Glutamate NMDA receptor; GRIN1/GRIN2B (GRIN1/GRIN2B, Homo sapiens, UniProt Q05586+Q13224, A652C) | two-electrode voltage clamp | Xenopus oocytes | concentration not given, with PAM, holding -40 mV, with: 200 µM MTSEA, 100 µM glutamate |  | potentiation by MTSEA | 1080 ± 55% |
| CN1CCN(C(=O)c2ccc([C@H]3[C@@H](F)[C@@H](F)C[C@@H](F)[C@H]3F)cc2)CC1=O |  | hepatocyte stability | cryopreserved rat hepatocytes | 1 µM |  | hepatic clearance | 10 mL/min/kg |
| O=c1nc(SCc2cc(F)cc(C(F)(F)F)c2)nc(SCc2ccc3sccc3c2)[nH]1 | TOP2A (Homo sapiens, UniProt P11388) | decatenation |  | 31.25 µM |  | mean decatenated DNA | 0.07% |
| CC[C@@H](C)[C@@H](NC(=O)[C@@H](Cc1ccc(O)cc1)NC(=O)[C@H]1CCCN1C(=O)[C@@H](CCCNC(=N)N)NC(=O)[C@H](N)Cc1c[nH]cn1)C(=O)N[C@H](C)C(=O)N[C@H](Cc1c[nH]cn1)C(=O)N[C@H](CCCNC(=N)N)C(=O)N[C@@H](C(=O)N[C@H](Cc1ccc(O)cc1)C(=O)N[C@H](CO)C(=O)N[C@H](Cc1ccccc1)C(N)=O)C(C)C | Transferrin receptor protein 1 (Tfrc, Mus musculus, UniProt Q62351) | flow cytometry | DC2.4 | 2 h, pH 6, replicate 2, unit not given | baseline: 0 h | surface TFRC expression | 0.952 |
| CC[C@H](C)[C@H](NC(=O)[C@H](Cc1ccccc1)NC(=O)[C@H](CCC(=O)O)NC(=O)[C@H](CCCNC(=N)N)NC(=O)[C@H](C)NC(=O)[C@H](C)NC(=O)[C@H](CCC(N)=O)NC(=O)[C@H](CCC(=O)O)NC(=O)[C@H](CCC(=O)O)NC(=O)[C@H](CC(C)C)NC(=O)[C@H](Cc1ccc(O)cc1)NC(=O)[C@H](CO)NC(=O)[C@H](CO)NC(=O)[C@@H](NC(=O)[C@H](CC(=O)O)NC(=O)[C@H](CO)NC(=O)[C@@H](NC(=O)[C@H](Cc1ccccc1)NC(=O)[C@@H](NC(=O)CNC(=O)[C@H](CCC(=O)O)NC(=O)[C@H](C)NC(=O)CCc1cnc[nH]1)[C@@H](C)O)[C@@H](C)O)C(C)C)C(=O)N[C@@H](C)C(=O)N[C@@H](Cc1c[nH]c2ccccc12)C(=O)N[C@@H](CC(C)C)C(=O)N[C@H](C(=O)N[C@@H](CCCCNC(=O)COCCOCCNC(=O)COCCOCCNC(=O)CC[C@H](NC(=O)CCCCCCCCCCCCCCCCC(=O)O)C(=O)O)C(=O)NCC(=O)N[C@@H](CCCNC(=N)N)C(=O)N[C@@H](CCCCNc1c(NCCCCCN(O)C(=O)CCC(=O)NCCCCCN(O)C(=O)CCC(=O)NCCCCCN(O)C(C)=O)c(=O)c1=O)C(=O)NCC(=O)NCC(=O)N[C@@H](CO)C(=O)N[C@@H](CCCCNc1c(NCCCCCN(O)C(=O)CCC(=O)NCCCCCN(O)C(=O)CCC(=O)NCCCCCN(O)C(C)=O)c(=O)c1=O)C(=O)NCC(=O)NCC(=O)N[C@@H](CO)C(=O)N[C@@H](CCCCNc1c(NCCCCCN(O)C(=O)CCC(=O)NCCCCCN(O)C(=O)CCC(=O)NCCCCCN(O)C(C)=O)c(=O)c1=O)C(=O)O)C(C)C | GLP1R (Homo sapiens, UniProt P43220) | agonist, CRE luciferase reporter | BHK cells | metal-free DFO conjugate, with: 1% HSA | baseline: parent peptide | fold potency loss | 3.7 |
| CC(=O)Nc1ccc(O)cc1 | BRD4 (Homo sapiens, UniProt O60885) | 19F NMR, item: tyrosine 118 |  | 746 µM | baseline: free protein | chemical shift change | -0.008 ppm |
| N#Cc1ccc2[nH]cc(CCCCN3CCN(c4ccc5oc(C(N)=O)cc5c4)CC3)c2c1 | SLC6A4 (Homo sapiens, UniProt P31645, F556A/S438T) | [3H]5-HT uptake, inhibitor | COS-7 |  |  | Hill coefficient | 1.11 ± 0.22 |
| CC(=O)N[C@H]1[C@H]([C@H](O)[C@H](O)CO)OC(O[C@H]2[C@@H](O)[C@@H](CO)O[C@@H](Oc3ccc([N+](=O)[O-])cc3)[C@@H]2O)(C(=O)O)C[C@@H]1O (stereo partly shown) | Sialidase-2 (Homo sapiens, UniProt Q9Y3R4) | substrate |  | 10 min, pH 5.0, 37 °C |  | kcat | 0.58 ± 0.04 s⁻¹ |
| O=C(Cn1ccnc1)Nc1ccc(C2CCCCC2)cc1 |  |  | cryopreserved human hepatocytes | 1 µM |  | hepatic clearance | 13 mL/min/kg |
| COc1cccc(-c2cc(F)ccc2[C@H]2Cc3nc(N)nc(C)c3C(=O)N2)n1 |  | radioligand, in vitro autoradiography | human and mouse tumour sections | concentration not given, with: Hsp90 inhibitor 10 µM |  | reduction of tracer binding | > 85% |
| Cc1ccc(N2CC(C(N)=O)CC2=O)cc1 (stereo not shown) | Transcription intermediary factor 1-beta, PHD-bromodomain (TRIM28, Homo sapiens, UniProt Q13263) | binding, affinity selection mass spectrometry |  |  | baseline: other proteins in batch | log fold enrichment | -0.0385 |
| COc1cc(F)ccc1-c1ncnc(Nc2cccc(C[S@](C)(=N)=O)c2)n1 | SRPK3 (Homo sapiens, UniProt Q9UPE1) | kinase activity |  | 10 µM, with: 10 µM ATP |  | remaining activity | 111% |
| CN1CCN(c2cc(-c3ccncc3)c(-c3ccc4ccccc4c3)nn2)CC1 | SSTR3 (Homo sapiens, UniProt P32745) | agonist, FLIPR |  | 12.5 µM |  | activation | -1.7% |

For quick reference, copied from above:
| SMILES | target or system | test | system | conditions | scale | quantity | result |
| --- | --- | --- | --- | --- | --- | --- | --- |
| CC[C@H](C)[C@H](NC(=O)[C@H](Cc1ccccc1)NC(=O)[C@H](CCC(=O)O)NC(=O)[C@H](CCCNC(=N)N)NC(=O)[C@H](C)NC(=O)[C@H](C)NC(=O)[C@H](CCC(N)=O)NC(=O)[C@H](CCC(=O)O)NC(=O)[C@H](CCC(=O)O)NC(=O)[C@H](CC(C)C)NC(=O)[C@H](Cc1ccc(O)cc1)NC(=O)[C@H](CO)NC(=O)[C@H](CO)NC(=O)[C@@H](NC(=O)[C@H](CC(=O)O)NC(=O)[C@H](CO)NC(=O)[C@@H](NC(=O)[C@H](Cc1ccccc1)NC(=O)[C@@H](NC(=O)CNC(=O)[C@H](CCC(=O)O)NC(=O)[C@H](C)NC(=O)CCc1cnc[nH]1)[C@@H](C)O)[C@@H](C)O)C(C)C)C(=O)N[C@@H](C)C(=O)N[C@@H](Cc1c[nH]c2ccccc12)C(=O)N[C@@H](CC(C)C)C(=O)N[C@H](C(=O)N[C@@H](CCCCNC(=O)COCCOCCNC(=O)COCCOCCNC(=O)CC[C@H](NC(=O)CCCCCCCCCCCCCCCCC(=O)O)C(=O)O)C(=O)NCC(=O)N[C@@H](CCCNC(=N)N)C(=O)N[C@@H](CCCCNc1c(NCCCCCN(O)C(=O)CCC(=O)NCCCCCN(O)C(=O)CCC(=O)NCCCCCN(O)C(C)=O)c(=O)c1=O)C(=O)NCC(=O)NCC(=O)N[C@@H](CO)C(=O)N[C@@H](CCCCNc1c(NCCCCCN(O)C(=O)CCC(=O)NCCCCCN(O)C(=O)CCC(=O)NCCCCCN(O)C(C)=O)c(=O)c1=O)C(=O)NCC(=O)NCC(=O)N[C@@H](CO)C(=O)N[C@@H](CCCCNc1c(NCCCCCN(O)C(=O)CCC(=O)NCCCCCN(O)C(=O)CCC(=O)NCCCCCN(O)C(C)=O)c(=O)c1=O)C(=O)O)C(C)C | GLP1R (Homo sapiens, UniProt P43220) | agonist, CRE luciferase reporter | BHK cells | metal-free DFO conjugate, with: 1% HSA | baseline: parent peptide | fold potency loss | 3.7 |
